Experimental data of several laboratories.
Numbered parts are unrelated; each lists some results of a single study. “And” joins repeats or separate records; there may be more than shown.
UniProt Q96BR1, sequence (whole entry, looked up): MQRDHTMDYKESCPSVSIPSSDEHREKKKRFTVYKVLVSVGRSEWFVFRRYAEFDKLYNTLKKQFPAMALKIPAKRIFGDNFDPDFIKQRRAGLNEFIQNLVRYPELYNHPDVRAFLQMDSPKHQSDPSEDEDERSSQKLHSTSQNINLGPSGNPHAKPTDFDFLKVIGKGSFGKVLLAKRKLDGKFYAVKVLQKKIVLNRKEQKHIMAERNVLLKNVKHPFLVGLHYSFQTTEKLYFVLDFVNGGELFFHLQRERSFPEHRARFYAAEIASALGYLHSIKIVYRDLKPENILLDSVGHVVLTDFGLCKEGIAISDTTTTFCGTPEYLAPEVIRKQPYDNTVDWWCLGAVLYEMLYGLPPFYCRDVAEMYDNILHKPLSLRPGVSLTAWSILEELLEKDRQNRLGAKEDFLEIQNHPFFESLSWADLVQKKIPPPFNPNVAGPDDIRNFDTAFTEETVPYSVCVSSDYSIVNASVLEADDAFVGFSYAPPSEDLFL
UniProt P48736, sequence (whole entry, looked up): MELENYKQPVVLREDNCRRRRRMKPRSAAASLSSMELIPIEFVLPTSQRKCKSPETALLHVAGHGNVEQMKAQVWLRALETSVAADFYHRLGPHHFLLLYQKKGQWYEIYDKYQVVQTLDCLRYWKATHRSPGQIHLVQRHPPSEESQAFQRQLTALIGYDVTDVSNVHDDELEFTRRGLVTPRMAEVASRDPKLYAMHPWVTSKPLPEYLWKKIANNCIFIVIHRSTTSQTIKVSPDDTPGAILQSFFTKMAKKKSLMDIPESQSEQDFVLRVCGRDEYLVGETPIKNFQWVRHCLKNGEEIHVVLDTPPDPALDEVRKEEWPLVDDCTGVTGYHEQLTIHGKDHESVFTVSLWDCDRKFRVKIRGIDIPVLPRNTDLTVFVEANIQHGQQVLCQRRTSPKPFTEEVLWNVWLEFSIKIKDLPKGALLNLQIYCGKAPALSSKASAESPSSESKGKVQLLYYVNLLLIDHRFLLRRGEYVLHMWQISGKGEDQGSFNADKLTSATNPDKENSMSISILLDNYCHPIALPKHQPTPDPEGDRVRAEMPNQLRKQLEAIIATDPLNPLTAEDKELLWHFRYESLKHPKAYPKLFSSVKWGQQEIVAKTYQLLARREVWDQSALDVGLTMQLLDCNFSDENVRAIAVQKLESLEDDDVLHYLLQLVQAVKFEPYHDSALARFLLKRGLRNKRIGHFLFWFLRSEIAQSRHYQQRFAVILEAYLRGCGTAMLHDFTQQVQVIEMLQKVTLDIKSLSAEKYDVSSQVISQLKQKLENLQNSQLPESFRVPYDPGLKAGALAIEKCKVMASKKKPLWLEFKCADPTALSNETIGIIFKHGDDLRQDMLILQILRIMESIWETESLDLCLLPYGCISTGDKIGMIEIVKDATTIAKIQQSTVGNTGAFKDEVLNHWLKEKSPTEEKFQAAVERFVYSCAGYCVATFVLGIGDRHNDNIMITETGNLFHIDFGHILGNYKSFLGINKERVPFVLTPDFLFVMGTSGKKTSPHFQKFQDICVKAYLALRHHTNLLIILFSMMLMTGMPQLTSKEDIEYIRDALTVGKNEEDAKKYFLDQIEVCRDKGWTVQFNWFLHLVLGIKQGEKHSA
UniProt Q9P289, sequence (whole entry, looked up): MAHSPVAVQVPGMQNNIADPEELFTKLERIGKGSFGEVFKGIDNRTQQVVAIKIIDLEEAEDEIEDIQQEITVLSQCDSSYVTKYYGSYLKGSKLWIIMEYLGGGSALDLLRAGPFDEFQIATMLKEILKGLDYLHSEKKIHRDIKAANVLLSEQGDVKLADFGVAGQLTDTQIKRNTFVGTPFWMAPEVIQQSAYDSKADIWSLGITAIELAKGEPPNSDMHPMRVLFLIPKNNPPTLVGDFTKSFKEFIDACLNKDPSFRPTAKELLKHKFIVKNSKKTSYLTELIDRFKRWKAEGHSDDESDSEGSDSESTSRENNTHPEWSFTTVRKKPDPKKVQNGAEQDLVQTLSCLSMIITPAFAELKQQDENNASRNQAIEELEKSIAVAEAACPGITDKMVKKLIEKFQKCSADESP

Series 1
Target: Calcium/calmodulin-dependent protein kinase type II subunit alpha (CAMK2A, Homo sapiens, UniProt Q9UQM7)
UniProt Q9UQM7, sequence (whole entry, looked up): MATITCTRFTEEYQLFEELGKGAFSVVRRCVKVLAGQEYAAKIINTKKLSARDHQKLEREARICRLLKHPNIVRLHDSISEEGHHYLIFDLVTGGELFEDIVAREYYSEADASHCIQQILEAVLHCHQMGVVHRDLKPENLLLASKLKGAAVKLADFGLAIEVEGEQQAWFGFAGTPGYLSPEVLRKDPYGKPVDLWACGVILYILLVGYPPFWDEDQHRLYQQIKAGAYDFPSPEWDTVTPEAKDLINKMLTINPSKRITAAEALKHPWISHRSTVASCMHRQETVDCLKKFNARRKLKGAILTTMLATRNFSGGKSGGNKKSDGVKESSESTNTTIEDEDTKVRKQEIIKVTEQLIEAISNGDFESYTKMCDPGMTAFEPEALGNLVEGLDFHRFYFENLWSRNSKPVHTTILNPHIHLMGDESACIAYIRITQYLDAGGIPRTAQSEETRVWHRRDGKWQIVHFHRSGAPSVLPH
Read-out: enzyme activity
Action: inhibitor
Concentration: 10 µM
Quantity: inhibition
CC1(C)CC[C@]2(C(=O)O)CC[C@]3(C)C(=CC[C@@H]4[C@@]5(C)CC[C@H](O[C@@H]6O[C@H](C(=O)O)[C@@H](O)[C@H](O)[C@H]6O[C@@H]6O[C@H](CO)[C@@H](O)[C@H](O)[C@H]6O)C(C)(C)[C@@H]5CC[C@]43C)[C@@H]2C1: -33%
C[C@@H](CO)CCC[C@@H](C)[C@H]1CC[C@H]2[C@@H]3CC=C4C[C@@H](O)CC[C@]4(C)[C@H]3CC[C@]12C: -2%
CO[C@@H]1[C@H](O)CC[C@]2(CO2)[C@H]1[C@@]1(C)O[C@@H]1CC=C(C)C: -30%
CN1CCCC(CC2c3ccccc3Sc3ccccc32)C1 (centres unmarked): -1%
CC(=O)O[C@H]1C[C@H]2C(=O)O[C@H](c3ccoc3)C[C@@]2(C)[C@@H]2C[C@@H]3C[C@@H](C(=O)O3)[C@@H]12: -8%
OB1OCc2cc(F)ccc21: -2%
CC[C@H](C)[C@@H]1NC(=O)[C@H](Cc2ccc(O)cc2)NC(=O)[C@@H](N)CSSC[C@@H](C(=O)N2CCC[C@H]2C(=O)N[C@@H](CC(C)C)C(=O)NCC(N)=O)NC(=O)[C@H](CC(N)=O)NC(=O)[C@H](CCC(N)=O)NC1=O: -10%
Oc1ccc2c(c1)OC[C@H]1c3cc4c(cc3O[C@@H]21)OCO4: -0.01% and 0.57%
CC(C)=CCC1=C(O)[C@](O)(CC=C(C)C)C(=O)C(C(=O)CC(C)C)=C1O: -55%
COc1ccc(CN2[C@@H]3C[C@H]2CN(c2ccc(-c4cc(OCC(C)(C)O)cn5ncc(C#N)c45)cn2)C3)cn1: 5%
C[C@@H]1CC[C@@]2(OC1)O[C@H]1C[C@H]3[C@@H]4CC=C5C[C@@H](O[C@@H]6O[C@H](CO)[C@@H](O)[C@H](O[C@@H]7O[C@H](CO)[C@@H](O)[C@H](O)[C@H]7O)[C@H]6O[C@@H]6O[C@@H](C)[C@H](O)[C@@H](O)[C@H]6O)CC[C@]5(C)[C@H]4CC[C@]3(C)[C@H]1[C@@H]2C: -5%
COc1cc(OC)c2c(=O)c(OC)c(-c3ccc(OC)c(OC)c3)oc2c1: 23%

Series 2
SMILES: Cc1sc(C(=O)NC2COC2)cc1-n1cc(NC(=O)Nc2c(F)cccc2Cl)cn1
Read-out: enzyme activity
Concentration: 10 µM
Quantity: remaining activity
SGK3 (Homo sapiens, UniProt Q96BR1); reference: untreated control: 89.1%
MAPK1 (Homo sapiens, UniProt P28482); reference: untreated control: 85.5%
RIPK4 (Homo sapiens, UniProt P57078); inhibitor: 103%
Cyclin-dependent kinase 2, with cyclin E2 (CDK2, Homo sapiens, UniProt P24941); reference: untreated control: 89.3%
VRK1 (Homo sapiens, UniProt Q99986); reference: untreated control: 105%
MAP3K6 (Homo sapiens, UniProt O95382); reference: untreated control: 77.7%
SIK3 (Homo sapiens, UniProt Q9Y2K2); reference: untreated control: 81.6%
ROS1 (Homo sapiens, UniProt P08922); reference: untreated control: 102%
STK38 (Homo sapiens, UniProt Q15208); reference: untreated control: 88.3%
STK26 (Homo sapiens, UniProt Q9P289); reference: untreated control: 71.3%
MARK1 (Homo sapiens, UniProt Q9P0L2); reference: untreated control: 95.2%
PAK6 (Homo sapiens, UniProt Q9NQU5); reference: untreated control: 99.1%
STK39 (Homo sapiens, UniProt Q9UEW8); reference: untreated control: 62.6%

Series 3
Compound: O=C(NCc1ncc(C(F)(F)F)cc1Cl)c1ccc2c(c1)C1(CCS(=O)(=O)CC1)[C@@H](C1CC1)N2S(=O)(=O)c1ccc(F)cc1
Read-out: cell-free assay
Technique: competition with immobilised ligand
Concentration: 1 µM
Quantity: remaining binding
TGFBR1 (Homo sapiens, UniProt P36897): 84%
AKT2 (Homo sapiens, UniProt P31751): 100%
CASK (Homo sapiens, UniProt O14936): 64%
NEK5 (Homo sapiens, UniProt Q6P3R8): 86%
NEK9 (Homo sapiens, UniProt Q8TD19): 72%
SIK2 (Homo sapiens, UniProt Q9H0K1): 100%
WNK1 (Homo sapiens, UniProt Q9H4A3): 79%
PIK3CA (Homo sapiens, UniProt P42336, E545K): 74%
STK36 (Homo sapiens, UniProt Q9NRP7): 100%
CLK4 (Homo sapiens, UniProt Q9HAZ1): 100%
COQ8B (Homo sapiens, UniProt Q96D53): 85%
PIK3CG (Homo sapiens, UniProt P48736): 95%
PRKCI (Homo sapiens, UniProt P41743): 100%

Series 4
Target: DNA polymerase theta, helicase domain (POLQ, Homo sapiens, UniProt O75417)
UniProt O75417, sequence (whole entry, looked up): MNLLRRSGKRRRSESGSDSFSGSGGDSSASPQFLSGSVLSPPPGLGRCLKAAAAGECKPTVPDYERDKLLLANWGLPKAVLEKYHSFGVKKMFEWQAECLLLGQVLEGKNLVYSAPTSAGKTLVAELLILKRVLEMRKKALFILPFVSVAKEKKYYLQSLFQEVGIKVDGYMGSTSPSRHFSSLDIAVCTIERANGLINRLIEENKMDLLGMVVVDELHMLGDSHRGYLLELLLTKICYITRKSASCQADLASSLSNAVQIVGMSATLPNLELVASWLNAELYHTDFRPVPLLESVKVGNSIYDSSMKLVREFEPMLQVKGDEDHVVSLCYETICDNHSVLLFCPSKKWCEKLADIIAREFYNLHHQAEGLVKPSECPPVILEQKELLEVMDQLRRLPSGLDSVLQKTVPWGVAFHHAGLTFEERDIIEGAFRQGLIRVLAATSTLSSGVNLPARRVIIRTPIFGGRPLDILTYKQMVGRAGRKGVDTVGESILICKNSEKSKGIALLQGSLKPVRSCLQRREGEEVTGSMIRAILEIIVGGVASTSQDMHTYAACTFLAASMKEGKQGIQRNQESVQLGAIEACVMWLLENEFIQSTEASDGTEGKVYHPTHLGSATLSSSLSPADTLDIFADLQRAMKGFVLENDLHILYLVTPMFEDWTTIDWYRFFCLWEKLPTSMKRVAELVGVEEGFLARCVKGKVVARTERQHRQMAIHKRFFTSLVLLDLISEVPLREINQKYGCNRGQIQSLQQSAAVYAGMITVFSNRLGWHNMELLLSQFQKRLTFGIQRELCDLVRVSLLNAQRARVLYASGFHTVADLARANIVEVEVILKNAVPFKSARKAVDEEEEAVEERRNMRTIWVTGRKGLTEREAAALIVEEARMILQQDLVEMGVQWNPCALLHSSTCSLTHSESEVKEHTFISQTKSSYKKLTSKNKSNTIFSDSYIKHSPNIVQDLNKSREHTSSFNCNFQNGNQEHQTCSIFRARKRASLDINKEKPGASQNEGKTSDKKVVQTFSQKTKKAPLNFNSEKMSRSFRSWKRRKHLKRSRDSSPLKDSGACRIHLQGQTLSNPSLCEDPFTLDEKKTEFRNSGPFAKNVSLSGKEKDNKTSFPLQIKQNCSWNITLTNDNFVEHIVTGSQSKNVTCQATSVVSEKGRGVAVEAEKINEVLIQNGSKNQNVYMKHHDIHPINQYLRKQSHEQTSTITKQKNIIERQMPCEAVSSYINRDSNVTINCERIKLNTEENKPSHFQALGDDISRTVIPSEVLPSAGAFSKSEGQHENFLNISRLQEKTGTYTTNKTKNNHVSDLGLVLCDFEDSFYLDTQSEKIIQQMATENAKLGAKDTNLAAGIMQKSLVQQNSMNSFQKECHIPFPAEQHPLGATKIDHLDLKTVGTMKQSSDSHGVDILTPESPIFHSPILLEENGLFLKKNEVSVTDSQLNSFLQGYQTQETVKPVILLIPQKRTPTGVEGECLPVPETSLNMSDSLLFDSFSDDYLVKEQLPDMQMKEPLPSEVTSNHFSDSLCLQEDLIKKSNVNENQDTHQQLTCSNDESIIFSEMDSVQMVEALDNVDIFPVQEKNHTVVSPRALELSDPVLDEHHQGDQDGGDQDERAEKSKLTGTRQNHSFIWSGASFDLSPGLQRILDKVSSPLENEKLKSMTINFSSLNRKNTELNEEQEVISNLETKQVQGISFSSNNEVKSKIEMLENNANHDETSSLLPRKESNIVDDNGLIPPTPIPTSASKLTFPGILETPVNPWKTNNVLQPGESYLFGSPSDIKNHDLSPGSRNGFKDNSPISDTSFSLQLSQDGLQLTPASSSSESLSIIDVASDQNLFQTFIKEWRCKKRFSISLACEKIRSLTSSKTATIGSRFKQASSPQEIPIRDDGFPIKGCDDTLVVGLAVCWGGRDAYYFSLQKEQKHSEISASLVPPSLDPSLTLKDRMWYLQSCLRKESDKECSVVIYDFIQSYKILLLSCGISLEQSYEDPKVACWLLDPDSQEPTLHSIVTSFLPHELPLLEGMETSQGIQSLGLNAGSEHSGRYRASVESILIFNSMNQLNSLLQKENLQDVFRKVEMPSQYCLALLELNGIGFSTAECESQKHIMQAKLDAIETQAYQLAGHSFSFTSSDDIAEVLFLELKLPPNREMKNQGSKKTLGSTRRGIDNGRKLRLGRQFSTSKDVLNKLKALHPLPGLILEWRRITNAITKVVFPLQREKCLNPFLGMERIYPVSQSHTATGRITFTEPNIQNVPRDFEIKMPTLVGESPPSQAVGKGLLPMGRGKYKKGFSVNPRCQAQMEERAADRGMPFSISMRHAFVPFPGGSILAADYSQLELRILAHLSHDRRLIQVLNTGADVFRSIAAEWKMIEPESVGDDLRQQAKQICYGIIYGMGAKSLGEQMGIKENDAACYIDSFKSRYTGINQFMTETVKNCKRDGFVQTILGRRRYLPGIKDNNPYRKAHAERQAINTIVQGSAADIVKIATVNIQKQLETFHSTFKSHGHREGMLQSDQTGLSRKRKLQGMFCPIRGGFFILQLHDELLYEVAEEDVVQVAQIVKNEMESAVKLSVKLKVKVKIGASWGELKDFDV
Action: inhibitor
Concentration: concentration not given
Notes: absolute value
Together with: with minus without ssDNA
Quantity: difference in remaining activity
CCCCCCCCCCCCc1ccc(S(=O)(=O)Nc2nncs2)cc1: 10.2%
COC(=O)[C@]12CCC(C)(C)C[C@H]1[C@H]1C(=O)C=C3[C@@]4(C)C=C(C#N)C(=O)C(C)(C)[C@@H]4CC[C@@]3(C)[C@]1(C)CC2: 47.2%
CC(=O)Oc1cccc2c1C(=O)c1c(OC(C)=O)cc(C(=O)O)cc1C2=O: 1.57%
Cc1ccccc1C(=O)Nc1sc2c(c1C(=O)O)CCC(C(C)(C)C)C2 (centres unmarked): 35.3%
O=C(Nc1ccccc1F)c1ccc2c(Cl)c3c(nc2c1)CCC3: 4.23%
O=c1[nH]c2cc(Cl)ccc2c(O)c1-c1cccc(Oc2ccccc2)c1: 7.05%
N#CSc1cc(SC#N)c(N)nc1N: 65.9%
O=C(Nc1ccccc1C(=O)O)c1cccc(S(=O)(=O)N2CCCC2)c1: 1.74%
CSc1ccc(/C=C/c2nc3ccccc3n2S(=O)(=O)c2cccc(Cl)c2)cc1: 17.6%
C/C(O)=C(\C#N)C(=O)Nc1ccc(C(F)(F)F)cc1: 33.1%
O=C(Nc1noc2ccccc12)c1ccc(F)cc1: 4.19%
O=C1c2c(O)ccc(O)c2C(=O)c2c(NCCNCCO)ccc(NCCNCCO)c21: 71.3%

Some of these lines once more (series 4):
O=c1[nH]c2cc(Cl)ccc2c(O)c1-c1cccc(Oc2ccccc2)c1: 7.05%
COC(=O)[C@]12CCC(C)(C)C[C@H]1[C@H]1C(=O)C=C3[C@@]4(C)C=C(C#N)C(=O)C(C)(C)[C@@H]4CC[C@@]3(C)[C@]1(C)CC2: 47.2%
O=C(Nc1ccccc1F)c1ccc2c(Cl)c3c(nc2c1)CCC3: 4.23%
